# Measurements gathered from unrelated publications.
# Lines come from different studies, so protocols differ. Several values in a cell are separate wells, animals, samples, runs or records. ± gives the spread as reported.
# Cell line: HEK293
Compound,test,conditions,endpoint,result
CC(C)C[C@H](NC(=O)[C@H](Cc1ccc(O)cc1)NC(=O)[C@@H]1CCCN1C(=O)[C@H](CCCNC(=N)N)NC(=O)[C@@H]1CCCN1C(=O)[C@H](CCCCN)NC(=O)[C@H](CC(=O)O)NC(=O)[C@@H]1CCCN1C(=O)[C@H](CCCNC(=N)N)NC(=O)C1(N)CCCCC1)C(=O)N1CCC[C@H]1C(=O)N[C@@H](CCCNC(=N)N)C(=O)N1CCC[C@H]1C(=O)N[C@@H](CCCNC(=N)N)C(=O)N1CCC[C@H]1C(=O)N1CCC[C@H]1C(=O)N[C@@H](CCCNC(=N)N)C(=O)N1CCC[C@H]1C(=O)N[C@H](C(=O)N[C@@H](CCCNC(=N)N)C(=O)N[C@@H](CSc1c(F)c(F)c(-c2c(F)c(F)c(SC[C@H](NC(=O)[C@H](CCCNC(=N)N)NC(=O)[C@@H](NC(=O)[C@@H]3CCCN3C(=O)[C@H](CCCNC(=N)N)NC(=O)[C@@H]3CCCN3C(=O)[C@@H]3CCCN3C(=O)[C@H](CCCNC(=N)N)NC(=O)[C@@H]3CCCN3C(=O)[C@H](CCCNC(=N)N)NC(=O)[C@@H]3CCCN3C(=O)[C@H](CC(C)C)NC(=O)[C@H](Cc3ccc(O)cc3)NC(=O)[C@@H]3CCCN3C(=O)[C@H](CCCNC(=N)N)NC(=O)[C@@H]3CCCN3C(=O)[C@H](CCCCN)NC(=O)[C@H](CC(=O)O)NC(=O)[C@@H]3CCCN3C(=O)[C@H](CCCNC(=N)N)NC(=O)C3(N)CCCCC3)C(C)C)C(=O)NN)c(F)c2F)c(F)c1F)C(=O)NN)C(C)C,cytotoxicity,highest tested 125 µg/mL,IC50,> 125 µg/mL
Cc1ccc(C(C)C)cc1.Cc1ccc(C(C)C)cc1.Cc1ccc(C(C)C)cc1.Cc1ccc(C(C)C)cc1.O=S(=O)(O)C(F)(F)F.O=S(=O)(O)C(F)(F)F.O=S(=O)(O)C(F)(F)F.O=S(=O)(O)C(F)(F)F.c1ccc2c3c4ccccc4c(c2c1)-c1cn(nn1)-c1cc[n+](cc1)[Ru-]1[O]c2c4ccccc4c4c5c(c6ccccc6c(c25)=[O+]1)=[O+][Ru-]([O]4)[n+]1ccc(cc1)-n1cc(nn1)-c1c2ccccc2c(c2ccccc12)-c1cn(nn1)-c1cc[n+](cc1)[Ru-]1[O]c2c4ccccc4c4c5c(c6ccccc6c(c25)=[O+]1)=[O+][Ru-]([O]4)[n+]1ccc(cc1)-n1cc-3nn1,"cell growth or viability, MTT",24 h,IC50,28.3 µM
CC(=O)[C@@H]1CCCN1C(=O)[C@@H]1CCCN1C(=O)[C@H](Cc1ccccc1)NC(=O)OC(C)(C)C,"cell growth or viability, SRB",,IC50,166 µM and 354 µM and 300 µM
CC(=O)OC[C@H]1O[C@@H](n2cc(CSc3nc4ccccc4n3Cc3cn([C@@H]4O[C@H](COC(C)=O)[C@@H](OC(C)=O)C(OC(C)=O)[C@H]4OC(C)=O)nn3)nn2)[C@H](OC(C)=O)C(OC(C)=O)[C@@H]1OC(C)=O (stereo in doubt),MTT,3.91 ppm,cytotoxicity,0.232%
CCCC[N+]1=c2cc3c4cc2[O][Mn-2]1(=[C]=O)(=[C]=O)(=[C]=O)[n+]1ccc(cc1)C(=O)Oc1ccccc1OC(=O)c1cc[n+](cc1)[Mn-2](=[C]=O)(=[C]=O)(=[C]=O)([O]3)[N+]=4CCCC,MTT,"50 µM, 48 h, photolysed compound",viability reduction,42%
Cc1ccc(-n2cc(CSc3nc4ccccc4n3Cc3cn(-c4ccc(C)cc4)nn3)nn2)cc1,MTT,500 ppm,cytotoxicity,93%
CCCC[N+]1=c2cc3c4cc2[O][Mn-2]1(=[C]=O)(=[C]=O)(=[C]=O)[n+]1ccc(cc1)C(=O)OCCOC(=O)c1cc[n+](cc1)[Mn-2](=[C]=O)(=[C]=O)(=[C]=O)([O]3)[N+]=4CCCC,MTT,"50 µM, 48 h, photolysed compound",viability reduction,~34%
CCCCCCNC(C(=O)N[C@@H]1Cc2c[nH]c3cc(ccc23)-c2cc3cc(c2O)Oc2ccc(cc2)C[C@H]2C(=O)N[C@@H](C(=O)O)c4ccc(O)c(c4)Oc4ccc(cc4)[C@@H](NC(=O)[C@@H]3NC(=O)[C@@H](c3ccc(O)cc3)NC1=O)C(=O)N2C)c1ccc(O)cc1 (stereo partly shown),"cell viability, CellTiter-Glo","48 h, 1% DMSO",IC50,unstable
CCCC[N+]1=c2cc3c4cc2[O][Mn-2]1(=[C]=O)(=[C]=O)(=[C]=O)[n+]1ccc(cc1)C(=O)OCCOCCOC(=O)c1cc[n+](cc1)[Mn-2](=[C]=O)(=[C]=O)(=[C]=O)([O]3)[N+]=4CCCC,"cell growth, MTT","48 h, LED photolysed 1 h",IC50,45.2 ± 5.13 µM
Cc1ccc(C(C)C)cc1.Cc1ccc(C(C)C)cc1.Cc1ccc(C(C)C)cc1.Cc1ccc(C(C)C)cc1.O=S(=O)(O)C(F)(F)F.O=S(=O)(O)C(F)(F)F.O=S(=O)(O)C(F)(F)F.O=S(=O)(O)C(F)(F)F.c1ccc2c3c4ccccc4c(c2c1)-c1cn(nn1)-c1cc[n+](cc1)[Ru-]1[O]C2=[O+][Ru-]([O]C2=[O+]1)[n+]1ccc(cc1)-n1cc(nn1)-c1c2ccccc2c(c2ccccc12)-c1cn(nn1)-c1cc[n+](cc1)[Ru-]1[O]C2=[O+][Ru-]([O]C2=[O+]1)[n+]1ccc(cc1)-n1cc-3nn1,"cell growth or viability, MTT",24 h,IC50,> 40 µM
CCN(C(=O)c1cc(F)ccc1Oc1nncnc1N1CCC2(C1)CN([C@H](CCCN(C)CCOC)C(C)C)C2)C(C)C,cell growth or viability,72 h,GI50,> 10 µM
O=[C]=[Mn-2]12(=[C]=O)(=[C]=O)[O]c3cc4c(cc3=[N+]1CCc1ccccc1)[O][Mn-2](=[C]=O)(=[C]=O)(=[C]=O)([N+]=4CCc1ccccc1)[n+]1ccc(cc1)C(=O)Oc1ccccc1OC(=O)c1cc[n+]2cc1,"cell growth, MTT","48 h, LED photolysed 1 h",IC50,> 50 µM
CC(C)C[C@H](NC(=O)[C@H](Cc1ccc(O)cc1)NC(=O)[C@@H]1CCCN1C(=O)[C@H](CCCNC(=N)N)NC(=O)[C@@H]1CCCN1C(=O)[C@H](CCCCN)NC(=O)[C@H](CC(=O)O)NC(=O)[C@@H]1CCCN1C(=O)[C@H](CCCNC(=N)N)NC(=O)C1(N)CCCCC1)C(=O)N1CCC[C@H]1C(=O)N[C@@H](CCCNC(=N)N)C(=O)N1CCC[C@H]1C(=O)N[C@@H](CCCNC(=N)N)C(=O)N1CCC[C@H]1C(=O)N1CCC[C@H]1C(=O)N[C@@H](CCCNC(=N)N)C(=O)N1CCC[C@H]1C(=O)N[C@H](C(=O)N[C@@H](CCCNC(=N)N)C(=O)N[C@@H](CSCc1ccc(CSC[C@H](NC(=O)[C@H](CCCNC(=N)N)NC(=O)[C@@H](NC(=O)[C@@H]2CCCN2C(=O)[C@H](CCCNC(=N)N)NC(=O)[C@@H]2CCCN2C(=O)[C@@H]2CCCN2C(=O)[C@H](CCCNC(=N)N)NC(=O)[C@@H]2CCCN2C(=O)[C@H](CCCNC(=N)N)NC(=O)[C@@H]2CCCN2C(=O)[C@H](CC(C)C)NC(=O)[C@H](Cc2ccc(O)cc2)NC(=O)[C@@H]2CCCN2C(=O)[C@H](CCCNC(=N)N)NC(=O)[C@@H]2CCCN2C(=O)[C@H](CCCCN)NC(=O)[C@H](CC(=O)O)NC(=O)[C@@H]2CCCN2C(=O)[C@H](CCCNC(=N)N)NC(=O)C2(N)CCCCC2)C(C)C)C(=O)NN)cc1)C(=O)NN)C(C)C,cytotoxicity,highest tested 125 µg/mL,IC50,> 125 µg/mL
